Assay results pooled from the literature.
A part holds a random share of what one study measured.
UniProt P10721, sequence (whole entry, unmodified, looked up): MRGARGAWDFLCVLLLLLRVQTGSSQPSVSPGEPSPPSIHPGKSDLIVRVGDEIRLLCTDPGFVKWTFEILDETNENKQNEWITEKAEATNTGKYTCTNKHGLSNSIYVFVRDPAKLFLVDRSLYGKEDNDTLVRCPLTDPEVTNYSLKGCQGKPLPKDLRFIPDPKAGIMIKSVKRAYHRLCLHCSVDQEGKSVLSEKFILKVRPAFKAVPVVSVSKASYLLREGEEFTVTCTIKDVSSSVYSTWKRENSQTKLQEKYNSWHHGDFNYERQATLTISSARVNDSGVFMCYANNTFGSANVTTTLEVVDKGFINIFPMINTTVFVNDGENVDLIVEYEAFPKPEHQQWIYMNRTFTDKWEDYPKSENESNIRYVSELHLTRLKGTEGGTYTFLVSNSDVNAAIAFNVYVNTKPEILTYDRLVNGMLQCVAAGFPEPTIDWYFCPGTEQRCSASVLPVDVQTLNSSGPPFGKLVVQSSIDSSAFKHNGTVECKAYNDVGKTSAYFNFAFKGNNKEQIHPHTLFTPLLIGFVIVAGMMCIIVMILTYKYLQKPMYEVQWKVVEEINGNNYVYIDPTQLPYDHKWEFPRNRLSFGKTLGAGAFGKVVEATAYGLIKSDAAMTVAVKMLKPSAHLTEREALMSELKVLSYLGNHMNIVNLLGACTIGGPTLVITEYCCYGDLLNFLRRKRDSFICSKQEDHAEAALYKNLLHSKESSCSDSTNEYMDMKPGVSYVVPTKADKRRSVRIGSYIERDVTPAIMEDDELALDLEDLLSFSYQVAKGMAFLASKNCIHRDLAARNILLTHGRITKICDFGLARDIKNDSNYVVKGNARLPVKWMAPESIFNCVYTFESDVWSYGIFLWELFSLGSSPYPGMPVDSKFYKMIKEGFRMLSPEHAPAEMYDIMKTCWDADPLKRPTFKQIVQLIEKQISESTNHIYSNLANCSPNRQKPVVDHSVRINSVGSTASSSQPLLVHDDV
UniProt Q13233, sequence (whole entry, looked up): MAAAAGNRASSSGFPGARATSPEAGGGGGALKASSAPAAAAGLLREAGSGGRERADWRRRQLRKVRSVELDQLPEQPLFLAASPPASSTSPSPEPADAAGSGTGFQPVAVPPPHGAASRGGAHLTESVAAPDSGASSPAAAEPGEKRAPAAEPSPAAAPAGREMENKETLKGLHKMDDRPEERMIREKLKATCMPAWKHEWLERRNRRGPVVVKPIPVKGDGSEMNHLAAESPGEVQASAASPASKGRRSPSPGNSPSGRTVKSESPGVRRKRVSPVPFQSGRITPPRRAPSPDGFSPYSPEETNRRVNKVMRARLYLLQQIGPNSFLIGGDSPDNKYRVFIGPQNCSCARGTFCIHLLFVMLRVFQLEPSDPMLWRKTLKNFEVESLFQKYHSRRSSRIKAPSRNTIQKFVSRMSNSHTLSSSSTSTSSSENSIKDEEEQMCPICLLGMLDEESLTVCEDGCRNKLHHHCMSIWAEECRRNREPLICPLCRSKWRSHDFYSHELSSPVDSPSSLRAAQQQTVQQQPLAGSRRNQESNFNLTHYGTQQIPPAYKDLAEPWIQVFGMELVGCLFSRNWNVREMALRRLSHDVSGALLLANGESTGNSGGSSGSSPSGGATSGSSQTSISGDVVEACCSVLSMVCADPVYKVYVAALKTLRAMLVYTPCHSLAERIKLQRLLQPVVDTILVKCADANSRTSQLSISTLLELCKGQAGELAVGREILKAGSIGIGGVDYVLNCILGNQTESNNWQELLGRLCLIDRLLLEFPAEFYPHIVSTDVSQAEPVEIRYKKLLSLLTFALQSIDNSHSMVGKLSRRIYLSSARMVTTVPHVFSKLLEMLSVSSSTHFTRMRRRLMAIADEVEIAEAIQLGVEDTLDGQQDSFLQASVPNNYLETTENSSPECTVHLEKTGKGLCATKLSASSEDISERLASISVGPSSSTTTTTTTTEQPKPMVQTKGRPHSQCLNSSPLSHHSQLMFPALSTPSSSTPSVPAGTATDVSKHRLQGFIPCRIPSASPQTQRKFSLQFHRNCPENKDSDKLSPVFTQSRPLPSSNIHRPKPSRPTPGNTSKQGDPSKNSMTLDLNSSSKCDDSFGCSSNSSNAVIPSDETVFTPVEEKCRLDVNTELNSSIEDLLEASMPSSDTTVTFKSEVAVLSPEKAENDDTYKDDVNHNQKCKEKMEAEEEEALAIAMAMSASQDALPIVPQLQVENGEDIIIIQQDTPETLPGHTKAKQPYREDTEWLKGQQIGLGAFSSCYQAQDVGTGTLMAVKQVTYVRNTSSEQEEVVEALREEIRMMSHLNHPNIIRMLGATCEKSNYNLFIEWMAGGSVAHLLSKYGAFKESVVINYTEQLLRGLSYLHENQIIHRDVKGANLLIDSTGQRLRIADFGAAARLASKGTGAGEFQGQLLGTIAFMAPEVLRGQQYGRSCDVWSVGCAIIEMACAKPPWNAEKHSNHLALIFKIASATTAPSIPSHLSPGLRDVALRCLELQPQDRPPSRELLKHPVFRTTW
UniProt O75914, sequence (whole entry, looked up): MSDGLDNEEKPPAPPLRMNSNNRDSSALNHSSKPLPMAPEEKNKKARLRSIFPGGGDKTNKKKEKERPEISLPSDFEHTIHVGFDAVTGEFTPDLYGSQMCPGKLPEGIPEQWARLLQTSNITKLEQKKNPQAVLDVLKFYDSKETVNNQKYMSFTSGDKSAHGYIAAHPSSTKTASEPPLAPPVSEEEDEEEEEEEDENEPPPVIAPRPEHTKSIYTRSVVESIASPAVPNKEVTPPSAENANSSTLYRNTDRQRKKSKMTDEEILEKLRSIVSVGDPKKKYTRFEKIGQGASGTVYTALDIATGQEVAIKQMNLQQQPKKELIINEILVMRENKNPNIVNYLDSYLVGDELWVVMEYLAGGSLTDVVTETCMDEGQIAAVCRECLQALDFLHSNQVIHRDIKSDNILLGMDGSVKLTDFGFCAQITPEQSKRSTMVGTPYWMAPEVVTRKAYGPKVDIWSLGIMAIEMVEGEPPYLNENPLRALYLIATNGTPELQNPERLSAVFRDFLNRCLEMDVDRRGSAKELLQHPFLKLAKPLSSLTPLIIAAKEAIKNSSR
UniProt Q00532, sequence (whole entry, looked up): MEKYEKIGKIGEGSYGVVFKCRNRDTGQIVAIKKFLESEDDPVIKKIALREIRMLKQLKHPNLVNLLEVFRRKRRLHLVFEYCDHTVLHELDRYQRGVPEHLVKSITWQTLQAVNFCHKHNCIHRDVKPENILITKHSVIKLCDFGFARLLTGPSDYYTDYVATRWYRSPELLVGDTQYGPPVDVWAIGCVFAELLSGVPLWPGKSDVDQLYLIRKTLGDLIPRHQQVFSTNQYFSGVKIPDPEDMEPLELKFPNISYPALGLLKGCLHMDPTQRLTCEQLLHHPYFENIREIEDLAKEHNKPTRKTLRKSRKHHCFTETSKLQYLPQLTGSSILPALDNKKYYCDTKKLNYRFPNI

Block 1 — cell line: Huh-7; tested at: 10 µM; time: 24 h
`COc1ccc2[nH]c([S+]([O-])Cc3ncc(C)c(OC)c3C)nc2c1` (stereo not shown) has a viability of 95%.
For `CC1=C(C(=O)O)N2C(=O)[C@@H](NC(=O)[C@H](N)C3=CCC=CC3)[C@H]2SC1`, the viability was 104%.
For `Oc1c(I)cc(Cl)c2cccnc12`, the viability was 101%.
For `CCCCCCCCCCC[C@@H](C[C@@H]1OC(=O)[C@H]1CCCCCC)OC(=O)[C@H](CC(C)C)NC=O`, the viability was 96%.
With `CCCCOc1cc(C(=O)NCCN(CC)CC)c2ccccc2n1` the viability was 98.6%.
For `[H]/N=C(\N/C(=N/[H])Nc1ccc(Cl)cc1)NC(C)C`, the viability was 102%.
`Nc1ccc(S(=O)(=O)Nc2cnc3ccccc3n2)cc1` has a viability of 98.4%.
With `O=C(Nc1ccccc1)c1ccccc1O` the viability was 95.1%.
For `CC(=O)Nc1ccc(OCC(O)CNC(C)C)cc1` (stereo not shown), the viability was 103%.
The viability of `CCCc1cc(=O)[nH]c(=S)[nH]1` is reported as 105%.

Block 2 — mode: agonist
Target: Beta-1 adrenergic receptor (ADRB1, Homo sapiens, UniProt P08588)
UniProt P08588, sequence (whole entry, looked up): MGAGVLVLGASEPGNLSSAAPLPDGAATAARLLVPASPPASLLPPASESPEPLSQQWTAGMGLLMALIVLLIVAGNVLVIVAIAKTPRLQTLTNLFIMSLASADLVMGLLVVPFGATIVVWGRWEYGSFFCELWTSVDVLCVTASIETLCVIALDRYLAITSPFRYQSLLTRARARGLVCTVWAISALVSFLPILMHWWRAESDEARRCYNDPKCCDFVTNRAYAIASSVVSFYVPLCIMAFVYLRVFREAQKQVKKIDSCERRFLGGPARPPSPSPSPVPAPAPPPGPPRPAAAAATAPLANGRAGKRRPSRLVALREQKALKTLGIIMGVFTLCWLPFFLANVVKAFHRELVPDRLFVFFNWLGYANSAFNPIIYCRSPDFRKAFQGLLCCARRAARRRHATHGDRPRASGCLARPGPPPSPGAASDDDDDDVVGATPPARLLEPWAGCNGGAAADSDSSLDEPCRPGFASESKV
`Fc1ccc(-c2c[nH]c([C@@H]3COCCN3Cc3cccnc3)n2)c(F)c1` has an EC50 of no less than 100 µM.
With `CC(C)c1ccc(C(=O)N2CC(CNC(=O)C3CCOCC3)C3(C2)CN(c2ccccc2)C3)cc1` (stereo not shown) the EC50 was no less than 100 µM.
`COc1ccc(-c2cc(=O)oc3cc(OCC(N)=O)ccc23)cc1` gave an EC50 of no less than 100 µM.
The EC50 of `Cc1nc(-c2ccccc2)ccc1C(=O)NC1CCc2[nH]ncc2C1` (stereo not shown) is reported as no less than 100 µM.
`COc1cc(/C=C/C(=O)c2c(O)ccc3c(C)cc(=O)oc23)ccc1O` gave an EC50 of no less than 100 µM.
The EC50 of `Cc1ccc2c(C(=O)N3CCCC3C)cc(-c3cnn(C)c3)nc2c1` (stereo not shown) is reported as no less than 100 µM.
`COc1ccc2[nH]cc(C3=CCN(c4ncnc5ccccc45)CC3)c2c1` gave an EC50 of 35.5 µM.
`O=C(Nc1ccccc1C(=O)N1CCOCC1)c1ccc2ccccc2n1` has an EC50 of no less than 100 µM.
With `Nc1nc2c(ncn2C2OC3COP(=O)(O)OC3C2O)c(=O)[nH]1` (stereo not shown) the EC50 was no less than 100 µM.
`O=C(Nc1ccc([C@@H](O)[C@H]2COCC(=O)N2Cc2ccc(F)cc2)cc1)c1cccs1` has an EC50 of no less than 100 µM.
For `O=C(Nc1cccc(-n2cnnn2)c1)c1cc2c(F)cccc2s1`, the EC50 was no less than 100 µM.
For `COc1ccccc1NC(=O)c1cc2c(ccc3ccccc32)oc1=O`, the EC50 was no less than 100 µM.
For `COC(=O)c1c(OC)cc2c(c1C)Oc1c(Cl)c(O)c(Cl)c(C)c1C(=O)O2`, the EC50 was no less than 100 µM.

Block 3 — effect on: cell-free assay; technique: competition with immobilised ligand; tested at: 1 µM
Structure (SMILES): CNCc1ccccc1-c1csc([C@H](C)Nc2nc(C)nc3cc(OC)c(OC)cc23)c1
Mast/stem cell growth factor receptor Kit (KIT, Homo sapiens, UniProt P10721, T670I/V559D) — remaining binding: 100%.
For Epidermal growth factor receptor (EGFR, Homo sapiens, UniProt P00533): remaining binding read 100%.
The remaining binding was 87% (Serine/threonine-protein kinase PAK 3 (PAK3, Homo sapiens, UniProt O75914)).
cAMP-dependent protein kinase catalytic subunit alpha (PRKACA, Homo sapiens, UniProt P17612) — remaining binding: 100%.
It gave 97% for remaining binding (Mitogen-activated protein kinase kinase kinase 1 (MAP3K1, Homo sapiens, UniProt Q13233)).
For cAMP-dependent protein kinase catalytic subunit beta (PRKACB, Homo sapiens, UniProt P22694): remaining binding read 100%.
It gave 100% for remaining binding (Wee1-like protein kinase 2 (WEE2, Homo sapiens, UniProt P0C1S8)).
Vascular endothelial growth factor receptor 2 (KDR, Homo sapiens, UniProt P35968) — remaining binding: 91%.
The remaining binding was 71% (Serine/threonine-protein kinase 32C (STK32C, Homo sapiens, UniProt Q86UX6)).
Receptor-interacting serine/threonine-protein kinase 2 (RIPK2, Homo sapiens, UniProt O43353) — remaining binding: 100%.
It gave 100% for remaining binding (MAP/microtubule affinity-regulating kinase 3 (MARK3, Homo sapiens, UniProt P27448)).
It gave 100% for remaining binding (Cyclin-dependent kinase-like 1 (CDKL1, Homo sapiens, UniProt Q00532)).
Tyrosine-protein kinase ABL1, phosphorylated (ABL1, Homo sapiens, UniProt P00519, F317L) — remaining binding: 100%.
It gave 99% for remaining binding (Proto-oncogene tyrosine-protein kinase receptor Ret (RET, Homo sapiens, UniProt P07949, V804L)).
For Mitogen-activated protein kinase kinase kinase 10 (MAP3K10, Homo sapiens, UniProt Q02779): remaining binding read 100%.
It gave 96% for remaining binding (Microtubule-associated serine/threonine-protein kinase 1 (MAST1, Homo sapiens, UniProt Q9Y2H9)).
Mast/stem cell growth factor receptor Kit (KIT, Homo sapiens, UniProt P10721, L576P) — remaining binding: 100%.
It gave 70% for remaining binding (Mast/stem cell growth factor receptor Kit, autoinhibited (KIT, Homo sapiens, UniProt P10721)).

Block 4 — effect on: enzyme activity; mode: inhibitor; tested at: 0.5 µM; baseline: control
Target: High affinity nerve growth factor receptor (NTRK1, Homo sapiens, UniProt P04629)
UniProt P04629, sequence (whole entry, looked up): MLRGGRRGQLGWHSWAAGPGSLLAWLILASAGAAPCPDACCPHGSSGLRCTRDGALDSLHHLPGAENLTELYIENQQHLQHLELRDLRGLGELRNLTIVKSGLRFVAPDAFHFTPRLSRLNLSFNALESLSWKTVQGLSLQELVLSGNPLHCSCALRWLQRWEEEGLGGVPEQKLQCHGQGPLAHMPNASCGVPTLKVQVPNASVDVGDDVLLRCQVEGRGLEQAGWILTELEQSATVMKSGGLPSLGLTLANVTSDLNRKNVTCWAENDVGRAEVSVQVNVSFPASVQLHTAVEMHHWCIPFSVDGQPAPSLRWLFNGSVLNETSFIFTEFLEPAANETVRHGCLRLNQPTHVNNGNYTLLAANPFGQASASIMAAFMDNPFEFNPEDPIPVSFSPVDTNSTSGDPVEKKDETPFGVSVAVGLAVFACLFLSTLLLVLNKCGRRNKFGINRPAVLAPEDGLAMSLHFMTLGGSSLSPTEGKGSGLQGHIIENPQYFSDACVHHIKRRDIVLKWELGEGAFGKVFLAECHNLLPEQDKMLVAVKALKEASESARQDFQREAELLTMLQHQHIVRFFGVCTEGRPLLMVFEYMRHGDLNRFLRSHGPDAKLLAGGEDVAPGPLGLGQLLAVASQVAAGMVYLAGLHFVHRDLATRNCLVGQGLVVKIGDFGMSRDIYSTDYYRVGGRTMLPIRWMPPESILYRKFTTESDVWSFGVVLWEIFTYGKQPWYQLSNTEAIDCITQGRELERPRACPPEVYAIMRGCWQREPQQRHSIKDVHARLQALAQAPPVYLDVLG
`O=c1cc(-c2cccc3c2Sc2ccccc2S3)oc(N2CCOCC2)c1` has a remaining activity of 99.4%.
`CCN(CC)CCNC(=O)c1c(C)[nH]c(/C=C2\C(=O)Nc3ccc(Cl)cc32)c1C` has a remaining activity of 8.73%.
`Cc1cc2ncc(-c3ccccc3)nc2cc1C` gave a remaining activity of 105%.
`COc1cc2c(cc1OC)-c1[nH]nc(Nc3cccc(F)c3)c1C2` gave a remaining activity of 98.8%.
The remaining activity of `COc1cc2ncnc(Nc3ccc(O)c(Br)c3)c2cc1OC` is reported as 96.4%.
`CCN(CC)C(=O)c1ccc(Nc2nc(OCC3CCCCC3)c3[nH]cnc3n2)cc1` gave a remaining activity of 81.4%.
`Cc1cn(-c2cc(NC(=O)c3ccc(C)c(Nc4nccc(-c5cccnc5)n4)c3)cc(C(F)(F)F)c2)cn1` gave a remaining activity of 91.4%.
For `O=C1c2ccccc2-c2n[nH]c3cccc1c23`, the remaining activity was 97.1%.
With `Cc1nc2cc3nc(-c4cccs4)cnc3cc2n1C` the remaining activity was 113%.
For `O=C(NC(NC(=S)Nc1ccc(F)c([N+](=O)[O-])c1)C(Cl)(Cl)Cl)C(c1ccccc1)c1ccccc1` (stereo not shown), the remaining activity was 107%.
`N#C/C(=C\c1ccc(O)c(O)c1)C(=O)NCc1ccccc1` gave a remaining activity of 98.4%.
The remaining activity of `CN([C@@H](Cc1ccc(OS(=O)(=O)c2cccc3cnccc23)cc1)C(=O)N1CCN(c2ccccc2)CC1)S(=O)(=O)c1cccc2cnccc12` is reported as 111%.
`N#Cc1c(NC(=O)c2cccc3ccccc23)sc2c1CCCC2` has a remaining activity of 105%.
`COc1cc2ncnc(Nc3cccc(Cl)c3)c2cc1OC` has a remaining activity of 92.6%.
